Experimental data gathered from unrelated publications.
Lines come from different studies, so protocols differ. ± marks the error that the study gave.

COc1c(C)c2c(c(O)c1C/C=C(\C)CCC(=O)O)C(=O)OC2 — IC50 (MINO; cell proliferation; blood cancer): 229 nM
Nc1ncnc2c1ncn2[C@@H]1O[C@@H]2COP(=O)(O)O[C@H]3[C@@H](O)[C@H](n4cnc5c(=O)[nH]cnc54)O[C@@H]3COP(=O)(O)O[C@H]2[C@H]1O — pathway fold enrichment (HFF-1; RNA sequencing, item: Interleukin-10 signaling; upregulated pathway; baseline: Zika virus alone): 17.1
COc1c(CCC[P+](c2ccccc2)(c2ccccc2)c2ccccc2)cc2c(c1OC)OCO2.[I-] — TGI (MDA-MB-435; SRB): -5.3 log M
CN1CCN(S(=O)(=O)c2cc([N+](=O)[O-])ccc2N(CCOS(C)(=O)=O)CCOS(C)(=O)=O)CC1 — IC50 fold change (sample D B-ALL PDX cells; cell viability; ex vivo; 48 h, together with: AKR1C3 inhibitor; baseline: with inhibitor over alone): 1.7
C[C@H]1[C@H](C)CC[C@]2(C(=O)O)CC[C@]3(C)C(=CC[C@@H]4[C@@]5(C)CC[C@H](O)C(C)(C)[C@@H]5CC[C@]43C)[C@H]12 — cell survival (MCF7; cell growth, MTT; 7.25 µg/mL, 48 h): 73.33 ± 0.52%
CN1CCN(C2(CNC3CCN(c4cccc(-c5cc6cc(F)ccc6[nH]5)c4)CC3)CCC2)CC1 — GI50 (786-0): 1410 nM
Oc1cc(O)cc(-c2cc3ccc(O)cc3o2)c1 — cell survival (MCF7; cell growth, MTT; 3.6 µg/mL, 48 h): 79.24 ± 0.13%
Nc1ncc(-c2nc(N3CCOCC3)nc(N3CCOCC3)n2)c(C(F)F)n1 — GI50 (VA-ES-BJ; 72 h): 53 nM
Oc1ccc(C2(c3ccc(O)cc3)c3ccccc3-c3ccccc32)cc1 — S phase cells (HepG2 spheroids; Hoechst flow cytometry; 0.10 µM, 96 h): 11.7 ± 2.74%
COc1cc(CCC[P+](c2ccccc2)(c2ccccc2)c2ccccc2)c(OC)c2c1OCO2.[I-] — GI50 (SK-MEL-28; SRB): -6.06 log M
CC(C)N1CCC(NC2CCN(c3cccc(-c4cc5cc(F)ccc5[nH]4)c3)CC2)CC1 — CC50 (PC-3): 5930 nM
CC(C)=CCc1c(O)cc(O)cc1-c1cc2ccc(O)c(CC=C(C)C)c2o1 — cell survival (3T3; cell growth, MTT; 50 µg/mL, 48 h): 51.4 ± 0.92%
O=C1CCP(=S)(c2ccccc2)CC1 — early apoptotic cells (PC-3; annexin V/PI flow cytometry; IC50, 72 h): 1.15%

Repeated from above:
Nc1ncc(-c2nc(N3CCOCC3)nc(N3CCOCC3)n2)c(C(F)F)n1 — GI50 (VA-ES-BJ; 72 h): 53 nM
